Experimental data collected from several papers.
A part holds a random share of what one study measured. Substitutions count along the parent as printed.

Set 1
Target: CCND1, cyclin fold, Cln2 fusion (human)
Technique: yeast growth competition, sequencing
Sample: yeast
Notes: strong parent motif
Baseline: not given
Reading: higher = stronger binding
Parent: SCAPER docking peptide (human); SNARRSLNFGGST; partner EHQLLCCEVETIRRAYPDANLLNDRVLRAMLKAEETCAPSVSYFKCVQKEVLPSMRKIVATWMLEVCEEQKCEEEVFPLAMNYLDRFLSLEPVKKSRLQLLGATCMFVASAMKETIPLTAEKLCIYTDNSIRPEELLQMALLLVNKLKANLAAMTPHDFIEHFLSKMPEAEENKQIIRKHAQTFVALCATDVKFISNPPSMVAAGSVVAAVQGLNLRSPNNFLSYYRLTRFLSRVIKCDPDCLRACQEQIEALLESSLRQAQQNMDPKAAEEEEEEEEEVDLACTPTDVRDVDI
| Substitution | normalised enrichment score |
| --- | --- |
| N2H | 0.715 |
| F9T | 0.292 |
| G11F | 0.652 |
| R5W | -0.0807 |

Set 2
Target: Interferon regulatory factor 7, full length, phosphomimetic (IRF7, Homo sapiens, UniProt Q92985, residues 1-503, S101K/S471D/S472D/S475D/S476D/S477D/S483D/S484D/S487D)
UniProt Q92985, sequence (whole entry, unmodified, looked up): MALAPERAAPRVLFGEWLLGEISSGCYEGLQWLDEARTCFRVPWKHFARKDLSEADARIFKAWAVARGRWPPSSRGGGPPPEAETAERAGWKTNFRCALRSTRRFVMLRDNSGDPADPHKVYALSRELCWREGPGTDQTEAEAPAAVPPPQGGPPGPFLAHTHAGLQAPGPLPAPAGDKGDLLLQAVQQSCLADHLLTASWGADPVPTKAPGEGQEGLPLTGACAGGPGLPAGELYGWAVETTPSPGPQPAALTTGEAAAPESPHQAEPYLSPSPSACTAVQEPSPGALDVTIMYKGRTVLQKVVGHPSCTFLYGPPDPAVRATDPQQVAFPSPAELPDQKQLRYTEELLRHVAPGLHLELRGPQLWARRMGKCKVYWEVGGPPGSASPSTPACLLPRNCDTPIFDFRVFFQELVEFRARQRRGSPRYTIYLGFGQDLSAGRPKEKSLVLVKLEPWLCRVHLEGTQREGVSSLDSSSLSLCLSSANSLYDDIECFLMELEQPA
Technique: protein-binding microarray
Molecule type: double-stranded DNA, one strand shown
Sample: in vitro
Tested at: 250 nM
Notes: 60-bp whole probe
Together with: salmon DNA 0.4 mg/ml
Baseline: random background probes
Reading: higher = stronger binding
All sequences stand within: GCCTAGCAC … GTCTTGATTCGCTTGACGCTGCTG
| Oligonucleotide | log fluorescence [z-score] |
| --- | --- |
| TTAGGTCTCGGACTGGGTTTGTGCTAG | 0.31 |
| TTCTTTATGTACTCTCTCCATGTGCTA | 0.603 |
| GACGAACTGAGATTGGAGACGTGCTAG | -0.324 |
| TCAGTTCTGGGAAATATTACTGTGCTA | 0.215 |
| TTAGGTCTCGGTCTCCGTTAGTGCTAG | 1.72 |
| TTAGAACTGAGTTTCTATTAGTGCTAG | 2.65 |
| GACGGACTGGGTTTCGCGACGTGCTAG | 0.182 |
| TAACCTTGAACTTTGGCCTCGTGCTAG | -0.0307 |
| TTAGATTTTAGTATCGATTAGTGCTAG | 1.41 |

Set 3
Target: Fragile X messenger ribonucleoprotein 1, C-terminal low-complexity region (Fmr1, Mus musculus, UniProt P35922)
Technique: RNA Bind-n-Seq
Molecule type: RNA
Sample: in vitro
Tested at: 200 nM
Notes: whole 134-nt RNA, ends assumed
Together with: 150 mM LiCl
Baseline: input library
Reading: higher = stronger binding
All molecules: 7-deaza-guanosine replaces G
All sequences stand within: GGGAGUUCUACAGUCCGACGAUC … UGGAAUUCUCGGGUGUCAAGG
| Oligonucleotide | log2 enrichment |
| --- | --- |
| CUCAAGUCCUGUGCUACACAUCGUAUGUACCGAAUCGGUGGUUUUUGGAAAGGAAAGUAUUAUGUUACGCCGUUCGGAUCUGCACUUCCA | 0.702 |
| UAACUUUAGAGGAGGAUCUGAUGGAUAUGGCAGUGGACGUAGAUUUGGGGAUGGCUAUAAUGGGUAUGGAGGAGGACCUGGAGGUGGCAA | 0.447 |
| CCUGUGCUACACAUCGUAUGUACCGAAUCAAACCCCCCCAAACCCCCAAAUUUUUUUAAAAAAGUAUUAUGUUACGCCGUUCGGAUCUGC | 1.41 |
| AAGUCCUGUGCUACACAUCGUAUGUACCGAAUCGGGUUUUUGGGUUUUUGGGUGGGAAAGUAUUAUGUUACGCCGUUCGGAUCUGCACUU | -1.55 |
| CAAGUCCUGUGCUACACAUCGUAUGUACCGAAUCGGUUUUUUUGGUUUUUGGAGGAAAGUAUUAUGUUACGCCGUUCGGAUCUGCACUUC | -1.07 |
| CCUCAAGUCCUGUGCUACACAUCGUAUGUACCGAAUCGGGAGGAGGGAGGGGAAAGUAUUAUGUUACGCCGUUCGGAUCUGCACUUCCAG | -0.711 |
| UGGCCCUGGUGGCAUGCGGGGAGGAAGAGGUGGCCUCAUGGAUCGUGGUGGUCCCGGUGGAAUGUUCACAGGUGGCCGUGGUGGAGACAG | -1.15 |

Single results of other studies
| Substance | target | test | system | conditions | how to read | endpoint | result |
| --- | --- | --- | --- | --- | --- | --- | --- |
| PhoQ, residues 284 288 289 292 302 303 GTAMQF | PhoP, residues 12 14 15 18 19 SMASL (Escherichia coli, UniProt P23836) | Sort-seq, refers to: YFP reporter | E. coli | PhoQ-PhoP variant library, together with: 10 µM Mg2+ | baseline: high Mg2+ state, higher = stronger signaling | fold induction | 2.19 |

For quick reference, copied from above (set 3):
| Oligonucleotide | log2 enrichment |
| --- | --- |
| AAGUCCUGUGCUACACAUCGUAUGUACCGAAUCGGGUUUUUGGGUUUUUGGGUGGGAAAGUAUUAUGUUACGCCGUUCGGAUCUGCACUU | -1.55 |
| CUCAAGUCCUGUGCUACACAUCGUAUGUACCGAAUCGGUGGUUUUUGGAAAGGAAAGUAUUAUGUUACGCCGUUCGGAUCUGCACUUCCA | 0.702 |
